Measured values collected from several papers.
Each line is one published result; not all experiments were run side by side.
Organism: Staphylococcus aureus

CC[C@H](C)[C@H](NC(=O)[C@H](CCCN)NC(=O)[C@H](CC(N)=O)NC(=O)[C@H](CC(C)C)NC(=O)[C@H](Cc1ccccc1)NC(=O)[C@H](CCCN)NC(=O)[C@H](CCCCNC(=N)N)NC(=O)[C@H](CC(C)C)NC(=O)[C@H](CC(C)C)NC(=O)[C@H](CCCN)NC(=O)[C@H](CCCCNC(=N)N)NC(=O)[C@H](CC(C)C)NC(=O)CNC(C)=O)C(=O)N[C@@H](CCCN)C(=O)N[C@@H](CCCCNC(=N)N)C(N)=O
MIC (broth microdilution; multidrug-resistant): 3.12 µM

CN1C(=O)[C@@H]2NC(=O)[C@@H]3NC(=O)[C@@H](c4ccc(O)cc4)NC(=O)[C@H](NC(=O)C(NCc4cccc(C(F)(F)F)c4)c4ccc(O)cc4)Cc4c[nH]c5cc(ccc45)-c4cc3cc(c4O)Oc3ccc(cc3)C[C@H]1C(=O)N[C@@H](C(=O)O)c1ccc(O)c(c1)Oc1ccc2cc1 (some centres unmarked)
MIC (ATCC 33591 MRSA, Mueller-Hinton broth): 8 µg/mL

CCCS[C@H]1[C@H](O)[C@@H](N)[C@@H](O[C@H]2[C@H](O[C@@H]3O[C@H](CO)[C@@H](O[C@H]4O[C@@H](CN)[C@@H](O)[C@H](O)[C@H]4N)[C@H]3O)[C@@H](O)[C@H](N)C[C@@H]2N)O[C@@H]1CO
MIC (methicillin-resistant, AAC(6') ANT(4',4'') APH(3')): 2 µg/mL

CCCO[C@H]1[C@H](O)[C@@H](N)[C@@H](O[C@H]2[C@H](O[C@@H]3O[C@H](CO)[C@@H](O[C@H]4O[C@@H](CN)[C@@H](O)[C@H](O)[C@H]4N)[C@H]3O)[C@@H](O)[C@H](N)C[C@@H]2N)O[C@@H]1CO
MIC (broth microdilution; MRSA isolate AG 038): 8 to 16 µg/mL

CC(C)[C@H](NC(=O)[C@H](CCCNC(=N)N)NC(=O)[C@H](CCCNC(=N)N)NC(=O)[C@@H](NC(=O)[C@H](C)NC(=O)[C@H](CC(N)=O)NC(=O)[C@H](CCCNC(=N)N)NC(=O)[C@@H](NC(=O)[C@H](CCCNC(=N)N)NC(=O)[C@H](CCCNC(=N)N)NC(=O)[C@@H](NC(=O)[C@@H](NC(=O)[C@H](CCCNC(=N)N)NC(=O)[C@H](CCCNC(=N)N)NC(=O)[C@H](Cc1c[nH]c2ccccc12)NC(=O)[C@H](Cc1c[nH]c2ccccc12)NC(=O)CN)[C@@H](C)O)C(C)C)C(C)C)C(C)C)C(=O)O
MIC (bacterial growth; ATCC 25923; 18 h): 256 µg/mL

COc1cc2c(=O)c(C(=O)NCCNCCO)cn(Cc3ccccc3)c2cc1OCc1cccc(Cl)c1
MIC (ATCC 43300 MRSA; ≥80% growth inhibition): > 32 µg/mL

CC(C)=CCc1cc2c(cc1O)OCc1c-2oc2c(CC=C(C)C)c(O)ccc12
MIC: inactive

CC(C)C[C@@H]1NC(=O)[C@H](C)NC(=O)[C@H](NC(=O)[C@H](CO)NC(=O)[C@@H](CCCCN)NC(=O)[C@@H](CC(C)C)N(C)C(=O)[C@@H](N)Cc2ccccc2)[C@H](C)OC(=O)[C@H](CC(C)C)NC1=O
MIC (MRSA ATCC 700698; TFA salt): > 32 µg/mL

O.O=[N+]([O-])[O-].O=c1cc[nH]c(=S)[nH]1.[Ag+].c1ccc(P(c2ccccc2)c2ccccc2)cc1.c1ccc(P(c2ccccc2)c2ccccc2)cc1
MIC (agar dilution; methicillin-resistant; 24 h, 37 °C): 50 µg/mL

CC(C)C[C@H](NC(=O)[C@H](CC(C)C)NC(=O)[C@H](CCCCN)NC(=O)CNC(=O)[C@H](CC(C)C)NC(=O)[C@H](CC(C)C)NC(=O)[C@H](CO)NC(=O)[C@H](CC(C)C)NC(=O)[C@H](CC(C)C)NC(=O)[C@@H]1CCCN1C(=O)[C@H](CC(C)C)NC(=O)[C@H](CC(C)C)NC(=O)CN)C(N)=O
MIC (broth microdilution; USA300 MRSA): 1.56 µM

C/C(=N/NC(=N)N)c1nnn(-c2ccc(C#CC(C)(C)C)cc2)c1C
MIC (broth microdilution; MRSA USA300 NRS384): ≤ 4 µg/mL

O=C(O)c1ccc(-n2cc(/C=N/Nc3ccc([N+](=O)[O-])cc3)c(-c3cccc(F)c3)n2)cc1
MIC (microbial growth; ATCC33592; drug-resistant strain): 0.78 µg/mL

N=C(N)NCCC[C@@H]1NC(=O)[C@H](CCCNC(=N)N)NC(=O)[C@H](CCCNC(=N)N)NC(=O)[C@H](CCCNC(=N)N)NC(=O)[C@H](Cc2c[nH]c3ccccc23)NC(=O)[C@H](CCCNC(=N)N)NC(=O)[C@H](CCCNC(=N)N)NC(=O)[C@@H](N)CCCn2cc(nn2)C[C@@H](C(N)=O)NC1=O
MIC (24 h, 37 °C, in 0.01% acetic acid): 125 µg/mL

C=C(NC(=O)C(=C)NC(=O)c1csc(C2=NC3c4csc(n4)C4NC(=O)c5csc(n5)C(C(C)(O)C(C)O)NC(=O)C5CSC(=N5)C(=CC)NC(=O)C(C(C)O)NC(=O)c5csc(n5)C3(CC2)NC(=O)C(C)NC(=O)C(=C)NC(=O)C(C(C)C)NC2C=Cc3c(C(C)O)cc(nc3C2O)C(=O)OC4C)n1)C(N)=O (centres unmarked)
MIC (broth microdilution; ATCC 10537 MRSA; 18 h, 37 °C): > 5 µg/mL

CC(C)[C@@H]1NC(=O)[C@@H]2CCCN2C(=O)[C@@H](C)NC(=O)[C@H](CO)NC(=O)[C@H](C)NC(=O)[C@H](C(C)(C)C)NC(=O)[C@H](CCO)NC(=O)[C@H](Cc2c[nH]c3ccccc23)NC(=O)[C@H](CCO)NC(=O)[C@@H](CCN)NC(=O)[C@H](CCC(N)=O)NC(=O)[C@H](CCN)NC(=O)[C@H](Cc2ccc(O)cc2)NC(=O)[C@H]([C@@H](C)O)NC1=O
MIC (broth microdilution; MRSA USA300, CAMHB with polysorbate-80; 16 h): > 64 µg/mL

CN[C@@H]1[C@H](O)[C@H](NC)[C@H]2O[C@]3(O)[C@H](O[C@@H]2[C@H]1O)O[C@H](C)C[C@@]3(O)CNCc1ccc(F)cc1
MIC (MRSA NRS70): 50 µg/mL

CN1C(=O)[C@@H]2NC(=O)[C@@H]3NC(=O)[C@@H](c4ccc(O)cc4)NC(=O)[C@H](NC(=O)C(NCc4cc(F)cc(F)c4F)c4ccc(O)cc4)Cc4c[nH]c5cc(ccc45)-c4cc3cc(c4O)Oc3ccc(cc3)C[C@H]1C(=O)N[C@@H](C(=O)O)c1ccc(O)c(c1)Oc1ccc2cc1 (some centres unmarked)
MIC (ATCC 33591 MRSA, Mueller-Hinton broth): 8 µg/mL

COc1ccc2c(c1)[O][Au-]13[O]c4ccc5ccc(OC)cc5c4C=[N+]1C1CCCCC1[N+]3=C2.F[P-](F)(F)(F)(F)F (centres unmarked)
MIC (bacterial growth, broth microdilution; vancomycin-intermediate; 24 h): > 20 µM

CC(C)C[C@@H]1NC(=O)[C@H](C)NC(=O)[C@H](NC(=O)[C@H](CO)NC(=O)[C@@H](CCCCN)NC(=O)[C@@H](CC(C)C)NC(=O)[C@@H](N)Cc2ccccc2)[C@H](C)OC(=O)[C@H](CC(C)C)NC1=O
MIC (MRSA ATCC 700698; TFA salt): 8 µg/mL

CC[C@H](C)[C@H](NC(=O)[C@H](CC(=O)O)NC(=O)[C@H](Cc1ccccc1)NC(=O)[C@H](CC(C)C)NC(=O)CN)C(=O)N[C@H](C(=O)N[C@@H](CCCCN)C(=O)N[C@@H](CCCCN)C(=O)N[C@H](C(=O)N[C@@H](CC(C)C)C(=O)N[C@@H](CCCCN)C(=O)N[C@@H](CC(C)C)C(=O)N[C@@H](CC(C)C)C(=O)N[C@@H](CCCCN)C(N)=O)C(C)C)C(C)C
MIC (ATCC 43300, CAMHB; 18 h, 37 °C): > 20 µM

COc1cc(/C=N/N2C(=O)c3ccccc3NC2c2cc(OC)c(O)c([N+](=O)[O-])c2)cc([N+](=O)[O-])c1O (centres unmarked)
MIC (microbial growth, broth dilution; MRSA; 24 h, drug-resistant strain, clinical isolate): > 256 µg/mL

CC(C)CCCCCCCCC/C=C/C(=O)N[C@@H](CC(=O)O)C(=O)N[C@H]1CNC(=O)[C@@H]2CCCN2C(=O)CNC(=O)[C@@H]([C@@H](C)O)NC(=O)CNC(=O)[C@H](CC(=O)O)NC(=O)CNC(=O)[C@H](CC(=O)O)NC(=O)CNC(=O)[C@H]2CCCCN2C1=O
MIC (MRSA USA300; added: Ca2+ 10 mM): > 64 µg/mL

NCCCC[C@@H]1NC(=O)[C@@H](Cc2c[nH]c3ccccc23)NC(=O)[C@H](Cc2c[nH]c3ccccc23)NC(=O)[C@@H](N)CSCc2ccc(cc2)CSC[C@@H](C(N)=O)NC(=O)[C@@H](Cc2c[nH]c3ccccc23)NC(=O)[C@H](Cc2c[nH]c3ccccc23)NC(=O)[C@@H](Cc2c[nH]c3ccccc23)NC(=O)[C@H](CCCCN)NC(=O)[C@@H](CCCCN)NC(=O)[C@H](CCCCN)NC(=O)[C@@H](CCCCN)NC1=O
MIC (COL MRSA): 32 µg/mL

CC[C@H](C)[C@H](N)C1=N[C@H](C(=O)N[C@@H](Cc2ccccc2)C(=O)N[C@H](CCC(=O)O)C(=O)N[C@H](C(=O)N[C@H]2CCCCNC(=O)[C@H](CC(N)=O)NC(=O)[C@@H](CC(=O)O)NC(=O)[C@H](Cc3c[nH]cn3)NC(=O)[C@@H](Cc3ccccc3)NC(=O)[C@H]([C@@H](C)CC)NC(=O)[C@@H](CCCN)NC2=O)[C@@H](C)CC)CS1
MIC (USA300 MRSA; 18 h, 37 °C, added: ZnSO4 0.3 mM): 2 µg/mL

CCCCCCCC(=O)NCCCC[C@@H]1NC(=O)[C@H](CCCNC(=N)N)NC(=O)[C@H](CCCNC(=N)N)NC(=O)[C@H](CCCNC(=N)N)NC(=O)[C@H](CCCNC(=N)N)NC(=O)[C@H](CCCNC(=N)N)NC1=O
MIC (broth microdilution; MRSA ATCC 43300; 37 °C): 129 µg/mL

CC(CCCOC(=O)CCC[N+](C)(C)C)C1CCC2C3CCC4CC(OC(=O)CCC[N+](C)(C)C)CCC4(C)C3CC(OC(=O)CCC[N+](C)(C)C)C12C (centres unmarked)
MIC (microbial growth; ATCCBAA44 MRSA; drug-resistant strain): 19.5 µg/mL

CC[C@H](C)[C@H](NC(=O)[C@H](CC(C)C)NC(=O)CCNC(=O)[C@H](CO)NC(=O)[C@H](CCCNC(=N)N)NC(=O)[C@@H](N)CO)C(=O)N[C@H](C(=O)N[C@@H](Cc1c[nH]cn1)C(=O)N[C@@H](CCC(N)=O)C(=O)N[C@@H](CCCNC(=N)N)C(=O)N[C@@H](CC(C)C)C(=O)N[C@@H](Cc1ccccc1)C(N)=O)C(C)C
MIC (broth microdilution; Mueller Hinton broth): > 400 µg/mL

CC[C@H](C)[C@H](NC(=O)[C@@H](Cc1ccccc1)NC)C(=O)N[C@@H](CO)C(=O)N[C@H](CCC(N)=O)C(=O)N[C@@H](C(=O)N[C@H](C(=O)OC[C@H](N)C(=O)N[C@H]1C(=O)N[C@@H](C)C(=O)N[C@@H](C2CCCCC2)C(=O)N[C@@H]([C@@H](C)CC)C(=O)O[C@H]1C)[C@@H](C)CC)[C@@H](C)CC
MIC (broth microdilution; ATCC 700698, MRSA, brain heart infusion broth; 16 h, 37 °C): 0.5 µg/mL

CCCCCCCCCCCCCCN1C(=O)/C(=N\NC(=N)N)c2cc(C)ccc21
MIC (broth microdilution; BAA41 MRSA; 18 h, 37 °C): > 192 µg/mL
